Experimental data of several laboratories.
A part holds a random share of what one study measured. Values joined by “and” are separate records of one study, mostly repeats; a detail may differ.
UniProt Q02880, sequence (whole entry, looked up): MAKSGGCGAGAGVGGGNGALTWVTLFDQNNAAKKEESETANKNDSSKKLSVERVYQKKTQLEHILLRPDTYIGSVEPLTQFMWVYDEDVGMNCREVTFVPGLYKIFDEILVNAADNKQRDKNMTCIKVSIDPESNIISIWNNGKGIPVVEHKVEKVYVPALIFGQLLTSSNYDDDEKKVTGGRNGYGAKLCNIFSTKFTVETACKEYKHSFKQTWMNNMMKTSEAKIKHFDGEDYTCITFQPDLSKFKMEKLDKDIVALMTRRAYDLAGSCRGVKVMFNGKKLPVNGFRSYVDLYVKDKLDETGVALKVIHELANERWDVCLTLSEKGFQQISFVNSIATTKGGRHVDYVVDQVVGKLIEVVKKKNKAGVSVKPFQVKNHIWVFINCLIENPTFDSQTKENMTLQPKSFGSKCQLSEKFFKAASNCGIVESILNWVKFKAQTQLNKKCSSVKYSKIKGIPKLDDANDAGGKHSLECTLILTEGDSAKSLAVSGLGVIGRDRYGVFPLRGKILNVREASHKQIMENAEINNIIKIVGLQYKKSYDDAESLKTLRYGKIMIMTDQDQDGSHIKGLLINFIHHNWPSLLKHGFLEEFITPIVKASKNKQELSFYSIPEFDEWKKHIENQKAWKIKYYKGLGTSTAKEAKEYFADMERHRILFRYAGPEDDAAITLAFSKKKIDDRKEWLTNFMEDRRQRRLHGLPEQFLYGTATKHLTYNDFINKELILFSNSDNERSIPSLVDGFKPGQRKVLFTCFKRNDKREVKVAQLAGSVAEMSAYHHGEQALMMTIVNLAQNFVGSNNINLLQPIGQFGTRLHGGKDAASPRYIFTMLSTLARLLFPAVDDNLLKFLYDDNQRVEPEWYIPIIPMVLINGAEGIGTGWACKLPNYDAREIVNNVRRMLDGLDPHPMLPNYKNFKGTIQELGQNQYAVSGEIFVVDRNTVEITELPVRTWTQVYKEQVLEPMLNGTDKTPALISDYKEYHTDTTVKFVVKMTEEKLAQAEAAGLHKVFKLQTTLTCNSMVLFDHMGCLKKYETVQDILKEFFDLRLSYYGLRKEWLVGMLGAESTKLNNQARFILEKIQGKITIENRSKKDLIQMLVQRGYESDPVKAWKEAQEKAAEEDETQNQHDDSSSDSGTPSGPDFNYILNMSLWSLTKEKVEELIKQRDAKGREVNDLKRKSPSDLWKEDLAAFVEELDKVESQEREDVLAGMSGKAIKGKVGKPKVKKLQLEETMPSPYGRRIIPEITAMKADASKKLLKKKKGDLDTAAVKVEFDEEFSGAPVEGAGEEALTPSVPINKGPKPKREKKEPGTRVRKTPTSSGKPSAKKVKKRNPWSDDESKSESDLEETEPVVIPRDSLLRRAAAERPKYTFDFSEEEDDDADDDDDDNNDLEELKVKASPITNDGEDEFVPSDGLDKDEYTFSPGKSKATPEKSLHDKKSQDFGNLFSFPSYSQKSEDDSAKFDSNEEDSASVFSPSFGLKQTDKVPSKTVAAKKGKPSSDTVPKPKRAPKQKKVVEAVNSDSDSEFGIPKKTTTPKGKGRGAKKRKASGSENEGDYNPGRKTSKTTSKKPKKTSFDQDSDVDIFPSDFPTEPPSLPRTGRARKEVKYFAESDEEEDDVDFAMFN

Study 1
Target: Replicase polyprotein 1ab, nsp14 (rep, Severe acute respiratory syndrome coronavirus 2, UniProt P0DTD1)
Action: inhibitor
Compound	IC50 [µM]
Cc1c(S(=O)(=O)N2CCn3nccc3C2)cc(C(=O)NCc2c(F)ccnc2N2CCCC2)n1C	0.00043
Cc1c(S(=O)(=O)N2CCC(C)CC2)cc(C(=O)NCc2cccnc2N2CCCCC2)n1C	0.37
COc1ccccc1CNC(=O)c1cc(S(=O)(=O)N2CCN(C)CC2)c(C)n1C	> 6.25

Single results of other studies
Compound	target or system	assay	test system	setting	scale	quantity	result
Fc1ccccc1Cc1nc(-c2nc(C(F)(F)F)n[nH]2)cn2ccnc12		measured: Investigations	healthy humans	oral, 10 mg, fasted, single dose		subjects with adverse events	7.1%
COC(=O)Nc1c(N)nc(-c2nn(Cc3ccccc3F)c3ncc(F)cc23)nc1N			healthy male humans, plasma	2.5 mg, phase I DDI study, together with: sacubitril/valsartan		AUC(0-24)	904 ng·h/mL
CC1COc2ccccc2N1C(=O)C(Cl)Cl (centres unmarked)	cytosolic carboxylesterase	substrate depletion	rhesus monkey, male, liver cytosol	5 µM, pH 7.4, without glutathione		intrinsic clearance	500 µL/min/mg
COc1cc([C@@H]2c3cc4c(cc3[C@@H](O[C@@H]3O[C@@H]5CO[C@@H](C)O[C@H]5[C@H](O)[C@H]3O)[C@H]3COC(=O)[C@H]23)OCO4)cc(OC)c1O	TOP2B (Homo sapiens, UniProt Q02880)	decatenation		100 µM, replicate 1		decatenated DNA	79.7% and 100%
N#CCC1CCN(c2nc(Nc3ccc(N4CCC(O)CC4)cc3)c3c(=O)[nH]ncc3n2)CC1		vs placebo, Olink multiplex	human, serum	20 mg, day 29, unit not given	baseline: placebo	GIF level difference	1.11

Excerpt of the above (study 1):
Compound	IC50 [µM]
Cc1c(S(=O)(=O)N2CCC(C)CC2)cc(C(=O)NCc2cccnc2N2CCCCC2)n1C	0.37
